Assay results pooled from the literature.
Each numbered part is a random draw from the data of one study; scales do not carry over between parts. Positions count from the first letter of the parent shown.

Study 1
Target: Protein C-ets-1 (ETS1, Homo sapiens, UniProt P14921, residues 1-441, K379A, full length assumed)
UniProt P14921, sequence (whole entry, unmodified, looked up): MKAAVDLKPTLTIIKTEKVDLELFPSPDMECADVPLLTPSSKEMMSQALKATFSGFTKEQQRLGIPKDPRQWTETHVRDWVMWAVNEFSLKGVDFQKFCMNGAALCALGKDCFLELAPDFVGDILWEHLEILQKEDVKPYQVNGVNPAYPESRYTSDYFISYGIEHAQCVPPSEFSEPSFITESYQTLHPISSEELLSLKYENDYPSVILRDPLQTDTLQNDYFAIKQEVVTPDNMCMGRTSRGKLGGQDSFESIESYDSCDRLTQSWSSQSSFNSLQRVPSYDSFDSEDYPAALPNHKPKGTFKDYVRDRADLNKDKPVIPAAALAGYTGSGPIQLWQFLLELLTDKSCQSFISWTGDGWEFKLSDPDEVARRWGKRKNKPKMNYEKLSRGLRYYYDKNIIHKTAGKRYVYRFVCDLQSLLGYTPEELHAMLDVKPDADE
Technique: protein-binding microarray
Molecule type: double-stranded DNA, one strand shown
Medium: in vitro
Concentration: not given
Notes: k-mer, scored over probes, only values ≥0.25
Direction: higher = stronger binding
`GGCGGACA` has an E-score of 0.276.
`CGGAACAA` has an E-score of 0.252.
The E-score of `ATCCCGGC` is reported as 0.278.
For `CACCGGAG`, the E-score was 0.34.
The E-score of `ACCGCGGA` is reported as 0.269.
The E-score of `AACTTATT` is reported as 0.253.
For `GATACACC`, the E-score was 0.286.
`ACAACAAA` has an E-score of 0.252.

Study 2
Target: ABI1, truncated, D143A, DHFR fusion (Arabidopsis thaliana)
Technique: DHFR PCA, deep sequencing
Medium: yeast
Notes: methotrexate growth selection, single substitutions
With: (+)-ABA 4.8 µM
Relative to: wild-type fitted maximum
Direction: higher = stronger binding
Starting sequence: PYL1, truncated, DHFR fusion (Arabidopsis thaliana); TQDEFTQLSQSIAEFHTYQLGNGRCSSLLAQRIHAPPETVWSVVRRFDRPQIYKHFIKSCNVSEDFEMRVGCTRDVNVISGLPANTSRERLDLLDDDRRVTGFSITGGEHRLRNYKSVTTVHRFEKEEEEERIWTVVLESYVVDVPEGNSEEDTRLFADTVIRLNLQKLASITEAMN; partner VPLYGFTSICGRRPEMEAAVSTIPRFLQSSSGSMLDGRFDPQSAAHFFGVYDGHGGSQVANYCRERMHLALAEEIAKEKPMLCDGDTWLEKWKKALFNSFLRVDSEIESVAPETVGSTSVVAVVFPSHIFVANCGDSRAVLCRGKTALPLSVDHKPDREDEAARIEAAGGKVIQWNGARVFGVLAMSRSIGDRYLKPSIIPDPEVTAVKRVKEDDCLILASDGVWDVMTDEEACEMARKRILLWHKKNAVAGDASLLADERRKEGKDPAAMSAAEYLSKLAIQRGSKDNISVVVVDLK
`V142C`: “relative binding score” 70%.
Under “relative binding score”, `V43N` is recorded as -4.1%.
`R113K`: “relative binding score” 88%.
Under “relative binding score”, `P146T` is recorded as 1.49%.
`G81K` — result for “relative binding score”: -8.3%.
`D97I` — result for “relative binding score”: 52.8%.

Study 3
Target: Interferon regulatory factor 3, full length, phosphomimetic (IRF3, Homo sapiens, UniProt Q14653, residues 1-427, S386D/S396D/S398D/S402D/T404D/S405D)
Technique: protein-binding microarray
Molecule type: double-stranded DNA, one strand shown
Medium: in vitro
Concentration: 2540 nM top
Notes: 60-bp whole probe
With: salmon DNA 0.4 mg/ml
Relative to: random background probes
Direction: higher = stronger binding
Constant ends, left off below: GCCTAGCAC … GTCTTGATTCGCTTGACGCTGCTG
Residues (chain): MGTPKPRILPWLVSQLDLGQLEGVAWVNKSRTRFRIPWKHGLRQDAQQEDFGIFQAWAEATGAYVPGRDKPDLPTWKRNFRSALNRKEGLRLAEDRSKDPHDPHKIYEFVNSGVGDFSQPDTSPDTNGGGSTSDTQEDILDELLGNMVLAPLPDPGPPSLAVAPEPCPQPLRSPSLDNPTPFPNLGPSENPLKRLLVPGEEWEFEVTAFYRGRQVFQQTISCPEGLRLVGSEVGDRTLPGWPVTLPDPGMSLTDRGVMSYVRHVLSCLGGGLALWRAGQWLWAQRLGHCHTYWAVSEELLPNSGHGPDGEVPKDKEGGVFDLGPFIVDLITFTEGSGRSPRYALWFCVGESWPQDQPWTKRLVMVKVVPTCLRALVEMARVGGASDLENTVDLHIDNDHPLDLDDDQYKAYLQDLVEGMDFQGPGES
`TCATATACCCATGTAGAACTGTGCTAG`: “fitted relative affinity” 0.572 z-score.
For `TTGTGTGTGTGTTTGTGTGTGTGCTAG`, “fitted relative affinity” read -0.758 z-score.
`TTAGGTATACTTTTCCTTTAGTGCTAG`: “fitted relative affinity” 2.17 z-score.
Under “fitted relative affinity”, `GACGGTTCCCTTTTCCCGACGTGCTAG` is recorded as 6.44 z-score.
Under “fitted relative affinity”, `GTTTCTCTTTCCTTCTTGATGTGCTAG` is recorded as 9.38 z-score.
`TCACTTCACCTCTCTGTCACTGTGCTA` — result for “fitted relative affinity”: 0.719 z-score.
`TCATATACCACTCTTGCACTGTGCTAG` — result for “fitted relative affinity”: 0.73 z-score.

Further values, each from its own experiment
`PhoQ, residues 284 288 289 292 302 303 SLANKL` gave a fold induction of 19.9 (PhoP, residues 12 14 15 18 19 TQCLL (Escherichia coli, UniProt P23836); Sort-seq, refers to: YFP reporter; E. coli; PhoQ-PhoP variant library, with: 10 µM Mg2+; relative to: high Mg2+ state, higher = stronger signaling).
